Results from different studies.
Protocols differ between the studies behind these lines. Numbers after ± are the reported error.

CC(C)C[C@H](NC(=O)[C@@H]1CCCN1C(=O)[C@H](CCCCN)NC(=O)[C@@H](N)CO)C(=O)N1CCC[C@H]1C(=O)N[C@@H](CCC(=O)O)C(=O)N[C@H](C(=O)N[C@H](C(=O)N[C@@H](CC(=O)O)C(=O)N[C@@H](CCC(=O)O)C(=O)N[C@@H](Cc1ccc(O)cc1)C(=O)NCC(=O)NCCOCCOCCOCCOCCC(=O)N[C@@H](CCCCNC(=O)CC[C@H](C(=O)O)N1CCN(CC(=O)O)CCN(CC(=O)O)CC1)C(=O)N1CCN(CCCN(C)c2ccc3nccc(C(=O)NCC(=O)N4CC(F)(F)C[C@H]4C#N)c3c2)CC1)[C@@H](C)O)C(C)C [copper-64 labelled]  SUVmean (PET; NMRI nude mouse, HT-1080 xenograft, hFAP-negative tumour; intravenous): 0.82 ± 0.13 SUV
O=C1NC2(CC2)COc2ncc(F)cc2[C@H]2COCCN2c2ccn3ncc1c3n2  organ weight (Sprague-Dawley rat, female, spleen; oral, 5 mg/kg/day, 4 weeks): 1.08 ± 0.146 g
CCCC[C@H](NC(=O)CN1CCC(NC(=O)CN2CCN(CC(N)=O)CCN(CC(N)=O)CCN(CC(N)=O)CC2)CC1)C(=O)N[C@H]1CC(=O)NCCCC[C@@H](C(N)=O)NC(=O)[C@H](Cc2c[nH]c3ccccc23)NC(=O)[C@H](CCCNC(=N)N)NC(=O)[C@@H](Cc2ccccc2)NC(=O)[C@H](Cc2c[nH]cn2)NC1=O [lead-212 labelled]  tissue uptake (male C57BL/6J mice, B16-F10 tumour, blood; intravenous, 20 pmol, 2 h, ex vivo): < 1 %IA/g
CC(=O)N[C@@H](CC(C)C)C(=O)N[C@H](C(=O)N[C@@H](Cc1ccccc1)C(=O)N[C@]1(C)CCCCCC/C=C/CCC[C@@](C)(C(=O)N[C@@H](C)C(=O)N[C@@H](C)C(=O)N[C@@H](C)C(=O)N[C@@H](C)C(=O)N[C@@H](C)C(=O)N[C@H](C)C(N)=O)NC(=O)[C@H](CC(C)C)NC(=O)[C@H](CCCCNC(=O)CCNC(=O)C[C@@H]2N=C(c3ccc(Cl)cc3)c3c(sc(C)c3C)-n3c(C)nnc32)NC(=O)[C@H](C)NC(=O)[C@H](Cc2c[nH]c3ccccc23)NC(=O)[C@H](Cc2ccc(O)cc2)NC(=O)[C@H](C)NC1=O)[C@@H](C)O  Cmax (male C57BL/6 mouse, plasma; intraperitoneal, 3 mg/kg, single dose): 940 nM
CCCCCCCCCCCCCCCCCCCCCCCCCC(=O)O[C@H](CCCCCCCCCCCCCC)[C@@H](O)[C@H](CO[C@H]1O[C@H](CO)[C@H](O)[C@H](O)[C@H]1O)NC(=O)OCc1ccc(NC(=O)[C@H](CCCNC(N)=O)NC(=O)[C@@H](NC(=O)CCCCCn2cc(CCC(=O)N[C@@H](Cc3ccccc3)C(=O)N[C@@H](Cc3ccccc3)C(=O)N[C@@H](CCCNC(=N)N)C(=O)N[C@@H](CCCCN)C(=O)N[C@@H](CO)C(=O)N[C@H](C(=O)N[C@H](C(=O)N[C@@H](CC(N)=O)C(=O)N[C@@H](Cc3ccccc3)C(=O)N[C@@H](CCC(=O)O)C(=O)N[C@@H](CCCCN)C(=O)N[C@@H](CC(C)C)C(=O)O)[C@@H](C)CC)[C@@H](C)CC)nn2)C(C)C)cc1  remaining α-GalCer level (HPLC-ESI-MS/MS; aqueous ammonium formate 50 mM; 10 µg/mL, eight days, pH 3.0, 20 °C): < 0.05%
CC(C)C[C@H](NC(=O)[C@@H]1CCCN1C(=O)[C@H](CCCCN)NC(=O)[C@@H](N)CO)C(=O)N1CCC[C@H]1C(=O)N[C@@H](CCC(=O)O)C(=O)N[C@H](C(=O)N[C@H](C(=O)N[C@@H](CC(=O)O)C(=O)N[C@@H](CCC(=O)O)C(=O)N[C@@H](Cc1ccc(O)cc1)C(=O)NCC(=O)NCCOCCOCCOCCOCCOCCOCCOCCOCCOCCOCCOCCOCCOCCOCCOCCOCCOCCOCCOCCOCCOCCOCCOCCOCCC(=O)N[C@@H](CCCCNC(=O)CC[C@H](C(=O)O)N1CCN(CC(=O)O)CCN(CC(=O)O)CC1)C(=O)N1CCN(CCCN(C)c2ccc3nccc(C(=O)NCC(=O)N4CC(F)(F)C[C@H]4C#N)c3c2)CC1)[C@@H](C)O)C(C)C [copper-64 labelled]  SUVmean (PET; NMRI nude mouse, HT-1080 hFAP xenograft, tumour; intravenous, maximum tumour uptake): 2.1 SUV
CC[C@H](C)[C@@H]([C@@H](CC(=O)N1CCC[C@H]1[C@H](OC)[C@@H](C)C(=O)N[C@H](C)[C@@H](O)c1ccccc1)OC)N(C)C(=O)[C@@H](NC(=O)[C@H](C(C)C)N(C)C(=O)OCc1ccc(NC(=O)[C@H](CCCNC(N)=O)NC(=O)[C@@H](NC(=O)CCCCCN2C(=O)CC(SC[C@H](NC(=O)[C@H](CC(=O)O)NC(=O)[C@H](Cc3ccc(O)cc3)NC(=O)[C@H](Cc3c[nH]c4ccccc34)NC(=O)[C@@H](N)CCCNC(=N)N)C(=O)O)C2=O)C(C)C)cc1)C(C)C (stereo partly drawn)  concentration (C57BL/6 mouse, healthy, serum; intraperitoneal, 2.5 mg/kg, 24 h): not detected
N=C(N)NCCC[C@@H]1NC(=O)[C@H](CCCCNC(=O)CCC(NC(=S)Nc2ccc(CC3CN(CC(=O)O)CCN(CC(=O)O)CCN(CC(=O)O)CCN3CC(=O)O)cc2)C(=O)NCCCC[C@@H]2NC(=O)[C@@H](Cc3ccc(O)cc3)NC(=O)[C@H](CC(=O)O)NC(=O)CNC(=O)[C@H](CCCNC(=N)N)NC2=O)NC(=O)[C@@H](Cc2ccc(O)cc2)NC(=O)[C@H](CC(=O)O)NC(=O)CNC1=O (stereo partly drawn) [scandium-44 labelled]  tissue uptake (ex vivo γ-counting; female athymic nude mice, U-87 MG xenograft, heart; intravenous, 4 h): 0.18 ± 0.09 %ID/g
CC(C)C[C@H](NC(=O)[C@@H](N)Cc1ccccc1)C(=O)N[C@@H](C)C(=O)N[C@H]1CSCc2cccc(n2)CSC[C@@H](C(=O)N[C@H](C(=O)NCC(=O)N[C@@H](CO)C(=O)N[C@@H](Cc2c[nH]c3ccccc23)C(=O)N[C@@H](CCCCNC(=O)CN2CCN(CC(=O)O)CCN(CC(=O)O)CCN(CC(=O)O)CC2)C(N)=O)[C@@H](C)O)NC(=O)[C@H](Cc2c[nH]cn2)NC(=O)[C@H]([C@@H](C)O)NC(=O)[C@H](CCC(=O)O)NC(=O)[C@@H]2CCCN2C1=O [gallium-68 labelled]  intact fraction (radio-HPLC; PBS; 2 h, 37 °C): > 99%

A few entries again:
N=C(N)NCCC[C@@H]1NC(=O)[C@H](CCCCNC(=O)CCC(NC(=S)Nc2ccc(CC3CN(CC(=O)O)CCN(CC(=O)O)CCN(CC(=O)O)CCN3CC(=O)O)cc2)C(=O)NCCCC[C@@H]2NC(=O)[C@@H](Cc3ccc(O)cc3)NC(=O)[C@H](CC(=O)O)NC(=O)CNC(=O)[C@H](CCCNC(=N)N)NC2=O)NC(=O)[C@@H](Cc2ccc(O)cc2)NC(=O)[C@H](CC(=O)O)NC(=O)CNC1=O (stereo partly drawn) [scandium-44 labelled]  tissue uptake (ex vivo γ-counting; female athymic nude mice, U-87 MG xenograft, heart; intravenous, 4 h): 0.18 ± 0.09 %ID/g
CC(=O)N[C@@H](CC(C)C)C(=O)N[C@H](C(=O)N[C@@H](Cc1ccccc1)C(=O)N[C@]1(C)CCCCCC/C=C/CCC[C@@](C)(C(=O)N[C@@H](C)C(=O)N[C@@H](C)C(=O)N[C@@H](C)C(=O)N[C@@H](C)C(=O)N[C@@H](C)C(=O)N[C@H](C)C(N)=O)NC(=O)[C@H](CC(C)C)NC(=O)[C@H](CCCCNC(=O)CCNC(=O)C[C@@H]2N=C(c3ccc(Cl)cc3)c3c(sc(C)c3C)-n3c(C)nnc32)NC(=O)[C@H](C)NC(=O)[C@H](Cc2c[nH]c3ccccc23)NC(=O)[C@H](Cc2ccc(O)cc2)NC(=O)[C@H](C)NC1=O)[C@@H](C)O  Cmax (male C57BL/6 mouse, plasma; intraperitoneal, 3 mg/kg, single dose): 940 nM
